Experimental data collected from several papers.
Numbered parts are unrelated; each lists some results of a single study. Changes are numbered by the printed parent chain.

Sample 1 — target: CCNA2, cyclin fold, Cln2 fusion (human); method: yeast growth competition, sequencing; medium: yeast; notes: strong parent motif; baseline: not given; direction: higher = stronger binding; quantity: normalised enrichment score
Parent: PKN2 docking peptide (human); VSAVQKLDFSDTM
VSAQQKLDFSDTM [V4Q]: 1.06
VSAVQILDFSDTM [K6I]: -0.199
VSAVQKLDFSCTM [D11C]: 2.79
VSAVQKLDFWDTM [S10W]: 1.51
VSAVQKLDDSDTM [F9D]: -0.361
VSYVQKLDFSDTM [A3Y]: 1.17
VSAVQKSDFSDTM [L7S]: -0.38
VSASQKLDFSDTM [V4S]: 0.735
VSDVQKLDFSDTM [A3D]: -0.852
VSAVQKLDFSDTT [M13T]: 2.48
VSAVQKLDFVDTM [S10V]: 0.91
YSAVQKLDFSDTM [V1Y]: 1.94
VYAVQKLDFSDTM [S2Y]: 1.96
VSAVQKNDFSDTM [L7N]: -0.384

Sample 2 — method: competition protein-binding microarray; molecule type: double-stranded DNA, one strand shown; medium: in vitro; concentration: 2 µM; together with: Cbf1 competitor, 0.05 µM; direction: higher = stronger binding; quantity: fluorescence intensity
Target: Phosphate system positive regulatory protein PHO4, full length, GST-tagged (PHO4, Saccharomyces cerevisiae, UniProt P07270, residues 1-312)
Notes: whole 60-bp probe, lowest competitor level
Residues (chain): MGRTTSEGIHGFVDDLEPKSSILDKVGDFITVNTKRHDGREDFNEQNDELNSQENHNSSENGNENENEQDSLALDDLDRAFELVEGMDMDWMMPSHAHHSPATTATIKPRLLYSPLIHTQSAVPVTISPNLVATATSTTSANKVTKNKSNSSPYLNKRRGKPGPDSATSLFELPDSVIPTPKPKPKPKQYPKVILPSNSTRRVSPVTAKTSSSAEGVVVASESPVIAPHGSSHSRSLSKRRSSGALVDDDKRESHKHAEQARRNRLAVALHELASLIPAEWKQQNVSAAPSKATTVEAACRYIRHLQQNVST
GACATGAAGTAGAGCAGCATGCAGACAGAATACATTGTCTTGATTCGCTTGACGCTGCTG: 7510 a.u.
CGTCCTAGTGATTGTCACCGCACTTCCATGAGGAAGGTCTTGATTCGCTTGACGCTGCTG: 4230 a.u.
CGTCCTAGTGATTGTCAAGTGGGTGCCATGAGGAAGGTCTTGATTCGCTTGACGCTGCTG: 6280 a.u.
CGGGGTTAAGTTTGCACAGTGGGTGGCTTGCAGCAGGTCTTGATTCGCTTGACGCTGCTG: 5220 a.u.
GAGACAGGCACTCACCACGTGAGGAAGAATTAGAGCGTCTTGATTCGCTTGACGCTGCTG: 16500 a.u.
AAATTACTAAGTTTTCACGTGGCCTACCCCGTATGAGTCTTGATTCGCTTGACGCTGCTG: 14500 a.u.
GATTATTGGCCAAGTACCGTGACGGTGGTAAGATTGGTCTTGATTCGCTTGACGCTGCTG: 4490 a.u.
TCGCCGATCTCCCCTCACATGTACACTTTTAATCAGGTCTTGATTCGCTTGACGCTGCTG: 7020 a.u.
TTTTGAATCCCGTTACACGTGGAATCTTTTTGAATTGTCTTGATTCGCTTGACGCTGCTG: 13200 a.u.
GGCCGCGGAGCGCTGAACGTGATGGTCCATTGTATGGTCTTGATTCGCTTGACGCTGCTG: 7970 a.u.
GCTGCAGGTTCTAACCATGTGATGACAATGGATTTGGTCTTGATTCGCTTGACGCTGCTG: 8130 a.u.
CTTTCCCGATCTTGTCACCTTACTTTAGCACATTTGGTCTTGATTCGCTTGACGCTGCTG: 3920 a.u.
CTTCTTGTAATGTTGCGCGTGATGGGAATCGATGTCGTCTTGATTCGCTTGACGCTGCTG: 9430 a.u.

Sample 3 — method: RNA Bind-n-Seq; molecule type: RNA; medium: in vitro; concentration: 200 nM; notes: whole 134-nt RNA, ends assumed; together with: 150 mM KCl; baseline: input library; direction: higher = stronger binding; quantity: log2 enrichment
Target: Fragile X messenger ribonucleoprotein 1, C-terminal low-complexity region (Fmr1, Mus musculus, UniProt P35922)
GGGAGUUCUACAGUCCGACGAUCCAAGUCCUGUGCUACACAUCGUAUGUACCGAAUCGGGAAAAAGGGAGGGUUUGGGAAAGUAUUAUGUUACGCCGUUCGGAUCUGCACUUCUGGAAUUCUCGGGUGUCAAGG: 0.826
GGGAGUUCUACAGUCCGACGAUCCAAGUCCUGUGCUACACAUCGUAUGUACCGAAUCGGAAAGGUUUGGUUUUUUUGGAAAGUAUUAUGUUACGCCGUUCGGAUCUGCACUUCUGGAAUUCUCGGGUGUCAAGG: -0.73
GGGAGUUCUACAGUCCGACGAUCCCUGUGCUACACAUCGUAUGUACCGAAUCGGGAAAAAGGGUUUUUUUGGGUUUUUUUGGGAAAGUAUUAUGUUACGCCGUUCGGAUCUGCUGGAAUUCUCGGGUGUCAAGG: -0.757
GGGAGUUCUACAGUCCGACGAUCCACAGACAACACGCACCCACACAGACACAGAGGGAAGGGGUUGGGAUGGGGACAGGGUGCACAGCAGGCCGGGGUAGGACCCCAGCCCCUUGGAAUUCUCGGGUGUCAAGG: 1.41
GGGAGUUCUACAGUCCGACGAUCCCUGUGCUACACAUCGUAUGUACCGAAUCGGGGUUUGGGGUUUUUUUGGGGAAAAAGGGGAAAGUAUUAUGUUACGCCGUUCGGAUCUGCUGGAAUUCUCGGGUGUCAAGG: 0.421
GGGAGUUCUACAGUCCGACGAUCGUCCUGUGCUACACAUCGUAUGUACCGAAUCGGGGUUUUUUUGGGGUUUGGGGUGGGGAAAGUAUUAUGUUACGCCGUUCGGAUCUGCACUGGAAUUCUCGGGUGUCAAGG: 0.524
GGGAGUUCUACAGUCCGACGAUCAGCCGAGCGGGAACGGAACCGACAGCUGGAGCGAGAGAAACGUCGGGAGCACAGUCGGGAGAGGGACAGGGAGAGAGAGAGAGAAAGGGAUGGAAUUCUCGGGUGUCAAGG: 0.0573
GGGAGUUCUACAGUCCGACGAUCUAACUUUAGAGGAGGAUCUGAUGGAUAUGGCAGUGGACGUGGAUUUGGGGAUGGCUAUAAUGGGUAAGGAGGAGGACCUGGAGGUGGCAAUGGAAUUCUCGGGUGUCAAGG: 0.331
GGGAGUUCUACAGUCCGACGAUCUGCUGGCAGCCAAGCAGCAGCAGGAGAUGCUGGCAGCCAAGCGGCAGCAGGAGCUGGAGCAGCAGCGGCAGCGGGAGCAGCAGCGGCAGGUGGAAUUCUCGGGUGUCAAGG: -0.483
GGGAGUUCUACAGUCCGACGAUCGUCCUGUGCUACACAUCGUAUGUACCGAAUCGGGAAAAAAAGGGAGGGUUUUUUUGGGAAAGUAUUAUGUUACGCCGUUCGGAUCUGCACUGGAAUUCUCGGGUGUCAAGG: 0.0609
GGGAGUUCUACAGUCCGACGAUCCCUGUGCUACACAUCGUAUGUACCGAAUCGGGGUUUGGGGUUUUUUUGGGGUUUUUGGGGAAAGUAUUAUGUUACGCCGUUCGGAUCUGCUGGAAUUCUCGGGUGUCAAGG: 0.703
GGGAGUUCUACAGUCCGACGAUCAAGUCCUGUGCUACACAUCGUAUGUACCGAAUCGGUUUUGGUUUUGGGGUUUUGGGAAAGUAUUAUGUUACGCCGUUCGGAUCUGCACUUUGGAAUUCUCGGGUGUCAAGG: -0.568
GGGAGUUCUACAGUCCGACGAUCAAGUCCUGUGCUACACAUCGUAUGUACCGAAUCGGAGGUUUUUUUGGUUUUUUUGGAAAGUAUUAUGUUACGCCGUUCGGAUCUGCACUUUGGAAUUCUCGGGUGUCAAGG: -1.06
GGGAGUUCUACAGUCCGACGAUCUCCUGUGCUACACAUCGUAUGUACCGAAUCGGGUUUUUUGGGGUUUUUUGGUUUUUUGGGAAAGUAUUAUGUUACGCCGUUCGGAUCUGCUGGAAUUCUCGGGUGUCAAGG: 0.11

Sample 4 — method: Sort-seq; item: YFP reporter; medium: E. coli; notes: PhoQ-PhoP variant library; together with: 10 µM Mg2+; baseline: high Mg2+ state; direction: higher = stronger signaling; quantity: fold induction
Substance: PhoQ, residues 284 288 289 292 302 303 SASVAL
PhoP, residues 12 14 15 18 19 LFHKL (Escherichia coli, UniProt P23836): 14.4
PhoP, residues 12 14 15 18 19 QQAYL (Escherichia coli, UniProt P23836): 12.4
PhoP, residues 12 14 15 18 19 GMGLL (Escherichia coli, UniProt P23836): 1.05

A few entries again (sample 3):
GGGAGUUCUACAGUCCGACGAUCUGCUGGCAGCCAAGCAGCAGCAGGAGAUGCUGGCAGCCAAGCGGCAGCAGGAGCUGGAGCAGCAGCGGCAGCGGGAGCAGCAGCGGCAGGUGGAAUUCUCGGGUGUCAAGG: -0.483
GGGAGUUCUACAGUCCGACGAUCUAACUUUAGAGGAGGAUCUGAUGGAUAUGGCAGUGGACGUGGAUUUGGGGAUGGCUAUAAUGGGUAAGGAGGAGGACCUGGAGGUGGCAAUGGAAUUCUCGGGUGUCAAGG: 0.331
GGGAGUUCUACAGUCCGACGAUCCCUGUGCUACACAUCGUAUGUACCGAAUCGGGGUUUGGGGUUUUUUUGGGGUUUUUGGGGAAAGUAUUAUGUUACGCCGUUCGGAUCUGCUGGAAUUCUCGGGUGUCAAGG: 0.703
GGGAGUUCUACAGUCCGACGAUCCACAGACAACACGCACCCACACAGACACAGAGGGAAGGGGUUGGGAUGGGGACAGGGUGCACAGCAGGCCGGGGUAGGACCCCAGCCCCUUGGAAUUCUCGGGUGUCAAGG: 1.41
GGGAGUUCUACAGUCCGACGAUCAGCCGAGCGGGAACGGAACCGACAGCUGGAGCGAGAGAAACGUCGGGAGCACAGUCGGGAGAGGGACAGGGAGAGAGAGAGAGAAAGGGAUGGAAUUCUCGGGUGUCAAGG: 0.0573
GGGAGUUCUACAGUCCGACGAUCCCUGUGCUACACAUCGUAUGUACCGAAUCGGGAAAAAGGGUUUUUUUGGGUUUUUUUGGGAAAGUAUUAUGUUACGCCGUUCGGAUCUGCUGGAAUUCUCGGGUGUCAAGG: -0.757
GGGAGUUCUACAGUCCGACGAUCAAGUCCUGUGCUACACAUCGUAUGUACCGAAUCGGUUUUGGUUUUGGGGUUUUGGGAAAGUAUUAUGUUACGCCGUUCGGAUCUGCACUUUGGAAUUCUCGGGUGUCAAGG: -0.568
